Measured values collected from several papers.
Values joined by “and” are separate records of one study, mostly repeats; a detail may differ. Numbers after ± are the reported error.

Structure (SMILES) | cell line | test | conditions | how to read | measurement | value
Cc1cc(C(C)(C)c2ccc(O)c(C)c2)ccc1O | HepG2 spheroids | annexin V-FITC/PI flow cytometry | 0.10 µM, 96 h |  | necrotic cells | 31.7 ± 16.3%
C=CCn1c(=O)n([C@@H]2O[C@H](CO)[C@@H](O)[C@H]2O)c2nc(N)[nH]c(=O)c21 | HFF-1 |  | 1 µM, 48 h |  | viability | 87.7%
NC(=O)c1cc(C2CC2)ccc1OCCc1cccc(F)c1 | HepG2 |  | 3 (unit not given) | reference: CC50 glucose over CC50 galactose | selectivity ratio | > 1
CCCSc1ccccc1N1CCN(CCCCn2c(=O)[nH]c3ccccc3c2=O)CC1 | African green monkey cells |  | 5 days |  | CC50 | 7.24 µM
O=[N+]([O-])c1ccc(O)cc1 | MDA-kb2 | cytotoxicity |  |  | AC50 | 58.2 µM
CCNCc1nc2c(N)nc3ccccc3c2n1CC(C)(C)O | HFF-1 |  | 10 µg/mL, 48 h |  | viability | 87.7%
COc1ccc2c(c1)N(C[C@H](C)CN(C)C)c1ccccc1S2 | African green monkey cells |  | 5 days |  | CC50 | 22.9 µM
CC(=O)N[C@@H]1[C@@H](O[C@H](C)C(=O)N[C@@H](C)C(=O)N[C@H](CCC(=O)O)C(N)=O)[C@H](O)[C@@H](CO)O[C@H]1O | HFF-1 |  | 0.1 µg/mL |  | viability | 93.5%
CCN(CC)CCOc1ccc(-c2nc3cc(Cl)ccc3s2)cc1 | African green monkey cells |  | 5 days |  | CC50 | 3.72 µM
c1cc2ccc3cccc4ccc(c1)c2c34 | rat hepatoma cells | cell confluency | 24 h, nominal concentration | reference: baseline IC10 over IC10 | toxic ratio | 0.3
CC(=O)N[C@@H](CCCCN)C(=O)N[C@@H](CCCCN)C(=O)N[C@@H](CC(C)C)C(=O)N[C@@H](C)C(=O)N[C@@H](CCCCN)C(=O)N[C@@H](CC(C)C)C(=O)N[C@@H](CC(C)C)C(=O)N[C@@H](CCCCN)C(=O)N[C@@H](CCCCN)C(=O)N1CCC[C@H]1C(=O)N[C@@H](CC(C)C)C(=O)N[C@@H](CCCCN)C(=O)N[C@@H](CC(C)C)C(=O)N[C@@H](CC(C)C)C(=O)N[C@@H](CCCCN)C(N)=O | human red blood cells | haemolysis | 6 h, 37 °C, 5% haematocrit in PBS |  | MHC10 | > 160 µM
CC(C)C[C@H](NC(=O)[C@H](CCCCN)NC(=O)[C@H](CC(C)C)NC(=O)[C@H](CC(C)C)NC(=O)CNC(=O)[C@H](CCCCN)NC(=O)[C@H](CC(C)C)NC(=O)[C@H](CCCCN)NC(=O)CNC(=O)[C@H](CC(C)C)NC(=O)[C@H](CC(C)C)NC(=O)[C@H](CCCCN)NC(=O)[C@@H](N)CC(C)C)C(=O)O | human red blood cells |  | 1 h, 37 °C, 10% hemolysis |  | lowest hemolytic concentration | > 256 µg/mL
Cc1ccc(OCCc2ccc(C3CC3)cc2)c(C(N)=O)c1 | HepG2 |  | 3 (unit not given) | reference: CC50 glucose over CC50 galactose | selectivity ratio | 4 and > 4
CC(C)C[C@H](NC(=O)CN)C(=O)N[C@@H](CCCCN)C(=O)N[C@@H](CCCCN)C(=O)N[C@@H](CC(C)C)C(=O)N[C@@H](CC(C)C)C(=O)N[C@@H](CC(C)C)C(=O)N[C@@H](CC(C)C)C(=O)N[C@@H](CC(C)C)C(=O)N[C@@H](CCCCN)C(=O)N[C@@H](CCCCN)C(=O)N[C@@H](CC(C)C)C(=O)NCC(=O)O | human red blood cells |  | 1 h, 37 °C, 10% hemolysis |  | lowest hemolytic concentration | > 256 µg/mL
CC(c1ccccc1)(c1ccc(O)cc1)c1ccc(O)cc1 | HepG2 spheroids | DNA strand breaks, comet | 24 h |  | lowest DNA strand break concentration | 40 µM
O=c1ccc2ccccc2o1 | NHEK | caspase-3/7 activity | concentration not given, 6 h |  | chance response | 0.1%
CC[C@H](C)[C@H](NC(=O)[C@H](CCC(N)=O)NC(=O)[C@H](CCCCN)NC(=O)[C@H](CCSC)NC(=O)[C@H](CO)NC(=O)[C@H](CCC(=O)O)NC(=O)[C@H](CCC(N)=O)NC(=O)[C@@H]1CCCN1C(=O)[C@H](CS)NC(=O)[C@@H](NC(=O)[C@H](CCCCN)NC(=O)[C@@H](NC(=O)CNC(=O)[C@@H](NC(=O)[C@@H]1CCCN1C(=O)[C@H](Cc1ccccc1)NC(=O)[C@H](Cc1ccccc1)NC(=O)[C@H](C)NC(=O)[C@H](CO)NC(=O)[C@H](CCCNC(=N)N)NC(=O)[C@H](CCCCN)NC(=O)[C@@H](NC(=O)[C@H](CCCNC(=N)N)NC(=O)[C@H](Cc1c[nH]cn1)NC(=O)[C@H](CCCCN)NC(=O)[C@H](C)NC(=O)[C@H](CC(C)C)NC(=O)[C@H](CC(=O)O)NC(=O)[C@H](Cc1ccccc1)NC(=O)[C@@H](NC(=O)[C@H](CCCNC(=N)N)NC(=O)[C@H](CCCNC(=N)N)NC(=O)[C@H](CCSC)NC(=O)[C@@H](NC(=O)[C@H](CO)NC(=O)[C@H](CCSC)NC(=O)[C@H](CCCCN)NC(=O)[C@H](Cc1ccc(O)cc1)NC(=O)[C@H](CCSC)NC(=O)[C@@H](N)CCCCN)[C@@H](C)O)[C@@H](C)CC)[C@@H](C)O)[C@@H](C)O)C(C)C)C(C)C)C(=O)N[C@@H](CC(C)C)C(=O)O | human red blood cells | hemolysis |  |  | HC50 | 2260 µmol/L
CN(CC[C@H](Oc1cccc2ccccc12)c1cccs1)N=O | TK6 expressing CYP2C19 |  | 0.25 µM, 4 h, without S9 | reference: vehicle | relative survival | 92.8%
N#Cc1cc(NCc2cccc(CN3C[C@H](O)[C@@H](O)[C@H](O)[C@H]3CO)c2)cc(C2=COCCO2)c1 | A549 expressing ACE2 | WST-1 | 25 µM, 3 days |  | viability | 100%
N[C@H](CCC(=O)N[C@H](CCC[C@H](N)C(=O)O)C(=O)O)C(=O)O | HFF-1 |  | 0.1 µg/mL |  | viability | 87.1%
O=S(=O)(O)c1nc2ccccc2s1 | rat hepatoma cells | cell viability | 24 h, freely dissolved concentration |  | IC10 | 1290 µM
O=S(=O)(c1ccc(O)cc1)c1ccc(O)cc1 | HepG2 spheroids | annexin V-FITC/PI flow cytometry | 0.01 µM, 96 h |  | necrotic cells | 43.3 ± 7.68%
CNC(=O)c1cc(C)ccc1OCCc1ccc(Br)cc1 | HepG2 |  | 3 (unit not given) | reference: CC50 glucose over CC50 galactose | selectivity ratio | < 1
CC(=O)N[C@@H](CC(C)C)C(=O)N[C@@H](CC(C)C)C(=O)N[C@@H](CCCCN)C(=O)N[C@@H](CC(C)C)C(=O)N[C@@H](CC(C)C)C(=O)N[C@@H](CCCCN)C(=O)N[C@@H](CCCCN)C(=O)N1CCC[C@H]1C(=O)N[C@@H](CC(C)C)C(=O)N[C@@H](CCCCN)C(=O)N[C@@H](CC(C)C)C(=O)N[C@@H](CC(C)C)C(=O)N[C@@H](CCCCN)C(N)=O | human red blood cells | haemolysis | 6 h, 37 °C, 5% haematocrit in PBS |  | MHC10 | > 160 µM
Nc1nc2c(ncn2[C@@H]2O[C@@H]3COP(=O)(O)O[C@H]4[C@@H](O)[C@H](n5cnc6c(N)ncnc65)O[C@@H]4COP(=O)(O)O[C@H]3[C@H]2O)c(=O)[nH]1 | HFF-1 |  | 10 µg/mL |  | viability | 89.5%
CC(=O)N[C@@H](CCCCN)C(=O)N[C@@H](CCCCN)C(=O)N[C@@H](CC(C)C)C(=O)N[C@@H](CC(C)C)C(=O)N[C@@H](CCCCN)C(=O)N[C@@H](CC(C)C)C(=O)N[C@@H](CC(C)C)C(=O)N[C@@H](CCCCN)C(=O)N[C@@H](C)C(=O)N1CCC[C@H]1C(=O)N[C@@H](CC(C)C)C(=O)N[C@@H](CCCCN)C(=O)N[C@@H](CC(C)C)C(=O)N[C@@H](CC(C)C)C(=O)N[C@@H](CCCCN)C(N)=O | human red blood cells | haemolysis | 6 h, 37 °C, 5% haematocrit in PBS |  | MHC10 | > 160 µM
CN1CCCC(CC2c3ccccc3Sc3ccccc32)C1 (stereo not drawn) | African green monkey cells |  | 5 days |  | CC50 | 10.1 µM
CC(C)(c1ccc(O)cc1)c1ccc(O)cc1 | HepG2 spheroids, dissociated | annexin V-FITC/PI flow cytometry | 10 µM, 24 h |  | early apoptotic cells | 4.33 ± 2.48%
CNCC(O)CC12CCC(c3ccccc31)c1ccccc12 (stereo not drawn) | African green monkey cells |  | 5 days |  | CC50 | 28.2 µM
CN(CCC=C1c2ccccc2CCc2ccccc21)N=O | TK6 expressing CYP2C19 |  | 0.125 µM, 4 h, without S9 | reference: vehicle | relative survival | 71.8%

For quick reference, copied from above:
Structure (SMILES) | cell line | test | conditions | how to read | measurement | value
CCNCc1nc2c(N)nc3ccccc3c2n1CC(C)(C)O | HFF-1 |  | 10 µg/mL, 48 h |  | viability | 87.7%
CC(C)(c1ccc(O)cc1)c1ccc(O)cc1 | HepG2 spheroids, dissociated | annexin V-FITC/PI flow cytometry | 10 µM, 24 h |  | early apoptotic cells | 4.33 ± 2.48%
Cc1cc(C(C)(C)c2ccc(O)c(C)c2)ccc1O | HepG2 spheroids | annexin V-FITC/PI flow cytometry | 0.10 µM, 96 h |  | necrotic cells | 31.7 ± 16.3%
CNC(=O)c1cc(C)ccc1OCCc1ccc(Br)cc1 | HepG2 |  | 3 (unit not given) | reference: CC50 glucose over CC50 galactose | selectivity ratio | < 1
